Experimental data of several laboratories.
Each numbered part is a random draw from the data of one study; scales do not carry over between parts. Changes are numbered by the printed parent chain.

Set 1 — technique: RNA Bind-n-Seq; form: RNA; medium: in vitro; concentration: not given; baseline: input RNA pool; direction: higher = stronger binding
Target: RING finger protein unkempt homolog, zinc fingers 1-6, GST-SBP tag (UNK, Homo sapiens, UniProt Q9C0B0, residues 30-357)
Chain of UniProt Q9C0B0 (30-357, looked up): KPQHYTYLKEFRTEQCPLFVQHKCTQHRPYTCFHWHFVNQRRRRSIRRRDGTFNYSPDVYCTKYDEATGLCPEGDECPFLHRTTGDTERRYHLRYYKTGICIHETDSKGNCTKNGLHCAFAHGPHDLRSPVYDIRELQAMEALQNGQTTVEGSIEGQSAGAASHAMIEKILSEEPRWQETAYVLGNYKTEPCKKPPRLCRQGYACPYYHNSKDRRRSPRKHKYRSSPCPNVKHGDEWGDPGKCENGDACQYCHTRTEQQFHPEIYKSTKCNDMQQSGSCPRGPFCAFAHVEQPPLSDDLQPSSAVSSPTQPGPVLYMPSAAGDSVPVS
Setting: RNA with constant flanks, human-mouse chimeric sites, ends assumed
Shared flanks, not repeated: GGGAGUUCUACAGUCCGACGAUC … CAACAGAGGAUUGAGCAUCA
Sequence	bound/input enrichment
UUGCUACUGACUCCCUGGGUCAAGUUCCUGUGGGAAUCUUACAGGCAGUGUUUGGACCUUCUUAGAAACAAUUCUAGAGUAGAGCGCCUUUACCAUGAUAUCGCCCAACAAGCUUUCAAA	0.257 ratio
UUUGUAUUCAUGUUAAGCACACGUGCUGGUGGUCUGGGCAUCAAUCUUGCAACUGCUGAUGUAGUCAUUUUGUAUGACUCAGAUUGGAAUCCGCAAGUUGAUCUUCAGGCUAUGGACCGU	0.131 ratio
ACUCAGAGAUCCACCUCCCAAAGUGCUGGGAGUAAAGUCUGAUAUUACACACCUAACUUGAUGGAUAUAUAUUUUUUUUAAUAUGAAUCUUCCUGUUCUUCAUCCAGAGAAAGAUUUGUU	0.589 ratio
UGUAGUUUCGCGGUUCAAGGUUUUGUGGUAGUUCACUUACGGUAUUAAAUUAUUAUUCUGCUUAGCUUAUAAUAAGGAUAAUUGCAUUUAAAGAGGUUACUGAAUGUUACUCUGAAACUU	0.382 ratio
AAAUCGUGUGUGUCCAAUAUUGAAAGUGCUUUAUCUACACUCCAGUAUGUAAGCAGCAUAGUAGUUUCUUUAGAGAAUAGGUCAGCCAUUGUAAAGUACAAUGCAAGCUUAGUCACUCCA	11.6 ratio
GACAGUGAAGAAGAAAUUAGAGAAGCAUUCCGUGUGUUUGAUAAGGAUGGCAAUGGCUAUAUUAGUGCAGCAGAGCUUCGCCAUGUGAUGACAAACCUUGGCGAGAAGUUAACAGAUGAA	1.9 ratio
CGCUUGGAUGAGGCGGGUGUCACAGAUGAAGUGCUAGAUUCUGCCAUGCAAGCCUUCUUACUAGAAAUCAUUGUUAAGCAUGGGGAGCCGGCACCUUAUUUAUGUAACAAAGAUCCGUUU	0.2 ratio
UCCUGGUCGUGUCCCAGUGCAGGACGAUGUGAACAAAAACUCAAAGCGGACCCUCUAUUGUAGUUCUUGAUUCUCGAAAUGUGCUAUUAUUGUUUGUAAAAAAGGAAUUUUUUUUAAAGA	0.391 ratio
UUACCCGAGAACGAGGAUGAGCUGGAGAGCACCAACAGGCGCUACACCAAGAGAGACUGCAGCACUUUCCUCAGAACUAGUGAGACGGGCAUCGUGGACCAGGUCAUGGUAACUCUCAAC	0.13 ratio
ACACAAUAUGAGACCAACAGCAUGGACUUCAAAGUCGGGGCAGAUGGGACAGUCUUCGCCACCCGGGAGCUGCAGGUCCCCUCCGAGCAGGUGGCGUUCACGGUGACUGCGCGGGAAAGC	0.258 ratio
AUGGUUGUGUCUCUUGAGAUCUAAAAACAAGAUGACUUUUCCUGGCACAUAUUCCAAAGCAAAGACUUUGUUACCUGCUGCUUAUUGUCUAAUUUACAGGGAUAUUUAAUUUUGUCAGGU	0.194 ratio

Set 2 — technique: protein binding microarray; form: double-stranded DNA, one strand shown; medium: in vitro; concentration: not given; baseline: not given; direction: higher = stronger binding
Target: Histone acetyltransferase KAT6A, winged helix 1, GST fusion (KAT6A, Homo sapiens, UniProt Q92794, residues 1-85)
Setting: 8-mer, flanks averaged, mean of 2 arrays, mostly near background
Construct (chain): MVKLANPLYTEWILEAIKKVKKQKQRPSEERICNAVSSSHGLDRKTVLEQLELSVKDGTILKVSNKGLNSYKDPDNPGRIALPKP
Sequence	E-score
CGAGCAGC	0.0138
GCTAACAA	0.133
GGAGGCAC	0.0409
CAAGTCGC	-0.019
AGGATGCC	-0.0386
ATGCACAT	-0.0655
TAAAGCAA	-0.0955
AGCTTCTG	-0.139
AAAGTATT	-0.173
CGGAGCTC	0.157
ACGCGTAT	0.283
TATCGAGA	-0.243
TGGCCTAA	-0.196
ATTTACTA	-0.0677
CGCGAAGA	0.143
CGCAAGTC	0.0383
AGGAAGGG	-0.145
AAAGATGG	-0.027
ACCAGCAA	-0.113
CTGTAAAC	-0.0657
CTAAAACA	-0.0868
CGGACAGC	0.193
CAGGGCTC	-0.168
AGGCATCG	-0.0761
ACGGTAGA	0.184

Set 3 — technique: RNA Bind-n-Seq; form: RNA; medium: in vitro; concentration: 365 nM; baseline: no-protein control; direction: higher = stronger binding
Target: RNA binding protein fox-1 homolog 2, RRM domain, GST-SBP tag (RBFOX2, Homo sapiens, UniProt O43251-10, residues 100-194)
Setting: natural RNA segment, single round, ends assumed
Shared flanks, not repeated: GGGAGUUCUACAGUCCGACGAUC … UGGAAUUCUCGGGUGCCAA
Construct (chain): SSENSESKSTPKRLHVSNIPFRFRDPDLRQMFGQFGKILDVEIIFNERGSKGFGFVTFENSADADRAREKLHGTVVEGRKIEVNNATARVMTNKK
Sequence	RBNS enrichment (R)
UUCAGAAAUAAUUAUUCAUUUUUAAAAAGCCCCUUUUAAAGCAUCUACUUGAAGAUUGGUAUAAUUUUCAUAAAAUGUCUUUUUUUUUAGUGUCCCAAAGAUAUCUUAGA	0.772
CUGCCCAGGUGGGGUGGGGUGGCCCAGGCAGCAGAAGGUUCCCUGAGGUCCCAGAGCCUGUUCCGUUGGCCCUGGGCCGAGGCCCACAGGUGCUGCCCUUGCUGCUGCUG	0.269
UUUGCCAAGGACGUUUGUCUCAAGGGAAAAGCAGUUUUCUGUGGGGCUUAUUAAAGGAAUGUUGGUUUACAUUGUCUUCAAAGACAAGUAUAGAAGCUGUAUGUGUAAGG	0.859
UUGUUCACUAUCAGUCUGGAGUGACUCUAUCUCCAGCAGUGCUCCCUGAGUGGCAGUGUUCCCUCAUCCACCCUGUUGCCCCUUAGCUAGAAGCUGUAAUGGAUGCUCUU	0.368
GUAUUAACAAAACCAAAGGACACAAGGGUGCAAGCCCCAUUCACGGCCUGGCAUGCAGCUUGUCCUUGCUCCUGGAACCUGGCAGGCCCUGCCCAGCCAGCCAUCGGAAG	0.436
UUAUUGAUGUUUUAUAUAGAGAGUAGGAUCAUUAGUUUUUGUUACUGUAAUGUUUGAUGUCUCAAAUGCACCGUAUUACGGUAAUAACAUGGUUUCGAAAACUUUCUGUU	0.323
CUCCUCUUAUUUUAUGAUAAAAGCAAAUGUGGCCUUCUCAGUAUCAUUCGAUUGCUAUUUGAGACUUUUAAAUUAAGGUAAAGGCUGCUGGUGUUGGUACCUGUGGAUUU	0.287
CUUAUUUUCUCUUGGAACAUAUCUGAAAACCUUCCCCACAAAUAACUUGUCACACCUUUUGUUUCAUUCUGAGUCUUUAGUUUUAGUCAUGGGCUUUCUUCACCUGCUCU	0.821
UGUGUCGACAGACUCAAGGACACAACCACCUCGACCUGGUCAUGUGGCAUGCCUGUGUAUGUGUGUAACAGGAUUCUGAAUGUUAGGUUGUAAUGCUAUUCCUGUAUGGG	7.16
GCUCUCAGUAUUGUGACAGUACAUUUUUACAAGGUUGUUUUUCUACCACCGUAUUUUUAAAGUAUUUUUAUGAUCUUCGUAUACUCACACUUCGCUUGUAUUGUAAAAGG	0.802
GGCAGAAGACGGUGGCGGCCCUGGGAGUGCUCGGUGUUUUCUGCAGUGCAAGCUACGGACCACAGUUAGGCUGCCUCACCUCUCAGGCGGCCAGCAGCAGCUCUGCUCAG	0.444
UGACAUUUACUCUUAUGUCUUUCUCUGGUCAUUCUGUUUUGUGGUACAAUCACCGUGUAAGUUAUGGUCUAAACCUGUCCUUUUGAGAGAGAAAAAGAUACUGUUGAUAA	0.502

Set 4 — target: CCND1, cyclin fold, Cln2 fusion (human); technique: yeast growth competition, sequencing; medium: yeast; setting: weak parent motif; baseline: not given; direction: higher = stronger binding
Starting sequence: MICAL3 docking peptide (human); LQLRRQLSFSEDS
Variant	normalised enrichment score
S10H	0.0756
F9L	-0.23
R5L	-0.119
Q2P	1.36
Q6G	0.136
E11P	0.266
R4N	0.356
L3D	0.0697
L7D	0.0123
Q6I	0.242
F9W	0.119
E11Q	0.384
F9Q	0.084
E11G	0.413
Q2W	0.0492
Q2E	0.7
R5E	0.128
F9S	-0.545
D12A	0.562
S10Q	0.0165
R5N	0.296
E11H	0.0118
E11T	0.203
D12F	0.512
D12M	0.649

Set 5 — technique: universal PBM; form: double-stranded DNA, one strand shown; medium: in vitro; concentration: not given; direction: higher = stronger binding
Target: Sal-like protein 4, full length isoform B (SALL4, Homo sapiens, UniProt Q9UJQ4-2, residues 1-616)
Setting: 8-mer, flanks averaged, mean of replicates
Construct (chain): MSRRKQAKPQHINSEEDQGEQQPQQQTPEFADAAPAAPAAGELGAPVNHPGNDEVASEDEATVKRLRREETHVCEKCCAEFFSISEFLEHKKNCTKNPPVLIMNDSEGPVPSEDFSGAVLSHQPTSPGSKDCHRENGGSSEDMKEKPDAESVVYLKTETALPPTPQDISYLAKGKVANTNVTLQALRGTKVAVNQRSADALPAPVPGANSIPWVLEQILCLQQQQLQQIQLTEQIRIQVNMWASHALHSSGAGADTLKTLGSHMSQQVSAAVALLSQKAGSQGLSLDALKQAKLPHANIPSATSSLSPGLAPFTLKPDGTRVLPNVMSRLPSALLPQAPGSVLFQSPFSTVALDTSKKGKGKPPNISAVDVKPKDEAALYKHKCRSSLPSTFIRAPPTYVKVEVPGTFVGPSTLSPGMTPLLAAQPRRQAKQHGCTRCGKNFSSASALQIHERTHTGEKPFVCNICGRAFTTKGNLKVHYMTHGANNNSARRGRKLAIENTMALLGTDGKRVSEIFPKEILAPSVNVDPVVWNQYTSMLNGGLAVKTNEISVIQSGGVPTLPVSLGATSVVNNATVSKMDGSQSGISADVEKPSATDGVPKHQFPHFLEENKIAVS
Sequence	E-score
GCTAGGAC	-0.0496
AGCGGTTC	-0.21
CACCTACC	-0.0841
ACGTGGCG	-0.166
CGTTTTGC	-0.0674
TACAGTAA	0.316
CCAACCCG	-0.346
GAACGGAA	-0.0984
GCAGCACA	-0.114
AGGGCCAG	-0.245
AATTATAG	0.394
AACTTTAA	0.243
CTCGGGCC	-0.307
AGGGCGAT	-0.117
GCCCGCGA	-0.315
GATCACAC	-0.12
TCTGTACA	0.217
CCCGTAAC	-0.105
ATAAGCAA	0.256
TGCGTACA	0.0404
ATCCCTCA	-0.0204
TCATCTAA	0.0826
AGTTATTA	0.426
ACTCGCTA	-0.123

A few entries again (set 3):
Sequence	RBNS enrichment (R)
GGCAGAAGACGGUGGCGGCCCUGGGAGUGCUCGGUGUUUUCUGCAGUGCAAGCUACGGACCACAGUUAGGCUGCCUCACCUCUCAGGCGGCCAGCAGCAGCUCUGCUCAG	0.444
UUAUUGAUGUUUUAUAUAGAGAGUAGGAUCAUUAGUUUUUGUUACUGUAAUGUUUGAUGUCUCAAAUGCACCGUAUUACGGUAAUAACAUGGUUUCGAAAACUUUCUGUU	0.323
CUCCUCUUAUUUUAUGAUAAAAGCAAAUGUGGCCUUCUCAGUAUCAUUCGAUUGCUAUUUGAGACUUUUAAAUUAAGGUAAAGGCUGCUGGUGUUGGUACCUGUGGAUUU	0.287
GCUCUCAGUAUUGUGACAGUACAUUUUUACAAGGUUGUUUUUCUACCACCGUAUUUUUAAAGUAUUUUUAUGAUCUUCGUAUACUCACACUUCGCUUGUAUUGUAAAAGG	0.802
UUUGCCAAGGACGUUUGUCUCAAGGGAAAAGCAGUUUUCUGUGGGGCUUAUUAAAGGAAUGUUGGUUUACAUUGUCUUCAAAGACAAGUAUAGAAGCUGUAUGUGUAAGG	0.859
UGUGUCGACAGACUCAAGGACACAACCACCUCGACCUGGUCAUGUGGCAUGCCUGUGUAUGUGUGUAACAGGAUUCUGAAUGUUAGGUUGUAAUGCUAUUCCUGUAUGGG	7.16
UGACAUUUACUCUUAUGUCUUUCUCUGGUCAUUCUGUUUUGUGGUACAAUCACCGUGUAAGUUAUGGUCUAAACCUGUCCUUUUGAGAGAGAAAAAGAUACUGUUGAUAA	0.502
